Results from different studies.
Numbered parts are unrelated; each lists some results of a single study.

Block 1
Target: RNA binding protein fox-1 homolog 2, RRM domain, GST-SBP tag (RBFOX2, Homo sapiens, UniProt O43251-10, residues 100-194)
Method: RNA Bind-n-Seq
Molecule type: RNA
Matrix: in vitro
Tested at: 365 nM
Notes: natural RNA segment, single round, ends assumed
Reference: no-protein control
Reading: higher = stronger binding
Construct (chain): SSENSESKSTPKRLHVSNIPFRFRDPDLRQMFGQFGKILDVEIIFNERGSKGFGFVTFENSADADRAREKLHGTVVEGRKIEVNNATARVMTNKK
`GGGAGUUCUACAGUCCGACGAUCAUGAGGAAGUUUUAAAAGACCAUGUUCCUAAGCUUCCAAGAAGGUUUUGGAUACUAGAAGUAUUAAUCUAUGGCUUUUCUCCCAGUAAAACCAUAGGCCUGAAGUUCACAUGGAAUUCUCGGGUGCCAA`: “RBNS enrichment (R)” 0.252.
Under “RBNS enrichment (R)”, `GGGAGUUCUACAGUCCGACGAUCGGCAGCUGAUCGCCCUGCGUGCUGUGUCGCGCUGCUUUGUCCCAGACACAAACCAGCACGUCAAGGGCCUAGCUCCUCCCCACCCCGGCAUUUCAGCGUCAAGUGCACUUUGGAAUUCUCGGGUGCCAA` is recorded as 0.356.
`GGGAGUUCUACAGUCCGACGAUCAGGAGGAGGAGACAGUCUUCCUCUUUAAGUUACAGAGAGCCGUAAGCUAAAGGACCUGCCUAGGAUUAUAAUAUUUGAAGAAUGAACUUUUAAAUUCUUGCAAUAACGAAUGGAAUUCUCGGGUGCCAA` — result for “RBNS enrichment (R)”: 0.633.
`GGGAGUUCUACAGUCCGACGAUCCUGUGGUCCAGAAAUCAAUGUGUUUGUCUGACAAAAAAAAAAAUAAAAUAAAAUAAACUGUUUUGAACAGAGUUGUUUGGUGUUCUUUCACUUGCAGAGGAGGUCUGGGGUGGAAUUCUCGGGUGCCAA` — result for “RBNS enrichment (R)”: 1.71.
`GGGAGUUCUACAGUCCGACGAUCGCAACCUCCAGGAAGAGAUACUCGUUACCCUUCAUUAUUUUCUAGCACUUUUGAACAGUCCCACAGUGCACAGGCCAUUUGAAGGAUGUAGAUGGCAGCCCUGGGCUGUCUGGAAUUCUCGGGUGCCAA` — result for “RBNS enrichment (R)”: 0.957.
`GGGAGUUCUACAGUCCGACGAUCGGCCUUUUCAGCAUUGGCCCACUAGCACCAUGCAUUUAUCUGAAUUCACGGGGCCCUCUGGGCACAUUCAUCAUCCCUCAUACACUAACUACUGUUUCUUCAUGUAAUGAUGGAAUUCUCGGGUGCCAA` — result for “RBNS enrichment (R)”: 0.235.
For `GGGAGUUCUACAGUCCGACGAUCAGGGGAUGUUUGCCUUUAAGGUUUUAUACUUUGUUUGGUUUGGAAAGAUGCUUUAAAUUAAAUUUGGGUAAUAUUAAACCACAUGUUUACAAUACCAAAAUCCACAAAAGUGGAAUUCUCGGGUGCCAA`, “RBNS enrichment (R)” read 0.506.
For `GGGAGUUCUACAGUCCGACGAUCGGAGGAUUGUCUGUUUGGCUGACACAGCAGCAGCCCUUCCCACCCAGCCACCUUCCUCACAGGGACUAGGAGGCUCAGUCCCCAACGGCUGGCAAGACUCAGGGUCCUCAUGGAAUUCUCGGGUGCCAA`, “RBNS enrichment (R)” read 0.316.
For `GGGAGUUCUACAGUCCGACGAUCACCCUAUUUAAAACUGGGUCAUCAUUUGUCCUGUUCUAGCAAGAUAGUCUUCAGUUUCAUUUUCCUGUGCCCUGUGGUAGUUGGAAACAAAUCAUAAUGUAUUAUUUAAAUGGAAUUCUCGGGUGCCAA`, “RBNS enrichment (R)” read 0.345.

Block 2
Target: Histone acetyltransferase KAT6A, winged helix 1, GST fusion (KAT6A, Homo sapiens, UniProt Q92794, residues 1-85)
Method: protein binding microarray
Molecule type: double-stranded DNA, one strand shown
Matrix: in vitro
Tested at: not given
Notes: 8-mer, flanks averaged, mean of 2 arrays, mostly near background
Reference: not given
Reading: higher = stronger binding
Residues (chain): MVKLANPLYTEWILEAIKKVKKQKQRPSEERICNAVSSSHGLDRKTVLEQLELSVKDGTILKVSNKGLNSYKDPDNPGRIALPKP
The E-score of `GACGAGCA` is reported as -0.25.
The E-score of `CCAGAGGA` is reported as -0.271.
The E-score of `AGGTTCAA` is reported as -0.207.
`CGCTTAAC` has an E-score of 0.184.
The E-score of `GAAGGACA` is reported as -0.0729.
`CCTCGAGA` has an E-score of -0.183.
`ACGAATCC` gave an E-score of -0.0943.
With `CAAAAGGG` the E-score was -0.137.
For `CATGCTGC`, the E-score was -0.0333.
For `CCCCTATC`, the E-score was -0.141.
`CAACTACC` has an E-score of -0.0951.
`CAAGAAGA` gave an E-score of -0.237.
With `ACGCACCG` the E-score was 0.258.
`GTACATCA` has an E-score of 0.0907.
The E-score of `AGATTGCT` is reported as -0.0971.
The E-score of `ACTCTCCC` is reported as -0.0337.
`CATAAAAA` gave an E-score of -0.145.
`GGCGTGTA` gave an E-score of 0.133.

Block 3
Target: RING finger protein unkempt homolog, zinc fingers 1-6, GST-SBP tag (UNK, Homo sapiens, UniProt Q9C0B0, residues 30-357)
Method: RNA Bind-n-Seq
Molecule type: RNA
Matrix: in vitro
Tested at: not given
Notes: RNA with constant flanks, human and mouse sites, ends assumed
Reference: input RNA pool
Reading: higher = stronger binding
Residues (chain): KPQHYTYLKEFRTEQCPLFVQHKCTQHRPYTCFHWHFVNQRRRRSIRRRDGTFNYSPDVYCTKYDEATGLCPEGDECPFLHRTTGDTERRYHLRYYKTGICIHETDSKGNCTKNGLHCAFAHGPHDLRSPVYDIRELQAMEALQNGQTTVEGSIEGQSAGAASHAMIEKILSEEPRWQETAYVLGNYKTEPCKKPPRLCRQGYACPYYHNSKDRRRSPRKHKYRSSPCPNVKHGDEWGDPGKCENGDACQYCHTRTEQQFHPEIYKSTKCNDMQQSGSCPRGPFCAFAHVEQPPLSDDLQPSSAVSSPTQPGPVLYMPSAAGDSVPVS
`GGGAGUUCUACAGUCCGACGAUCGCUCUUGCUUAUGGAAUCUAUAAACAAGACCUUCCUGCCUUAGAAGAAAAACCAAGAAAUGUAGUUUUUGUAGAUAUGGGACAUUCUGCCUAUCAAGUUUCUGUAUGUGCAUUUAAUAAACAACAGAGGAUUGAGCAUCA` gave a bound/input enrichment of 2.68 ratio.
`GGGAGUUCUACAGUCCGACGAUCACAAAAAAAAUCAAAAAUUAAAAAAAAUCAAUGCGGUCUCUUUGCAGAAUGUUUUGCUUGAUGUUUAAAAAAUACCUUGGAUCUUAUUUUGUAAAUACUUACAUUUUUGUUAAAAAAUACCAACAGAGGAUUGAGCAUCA` has a bound/input enrichment of 0.414 ratio.
For `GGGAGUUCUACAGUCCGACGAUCUCCACAACAGGUUCCUGACGGAGACUUCGCCCUUCAUGUGGUCCAACCUGGGCAUUGGCCUAGCUAUCUCCCUGUCUGUGGUUGGGGCAGCCUGGGGCAUCUAUAUUACCGGCUCCUCCACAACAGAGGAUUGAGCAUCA`, the bound/input enrichment was 0.0994 ratio.
The bound/input enrichment of `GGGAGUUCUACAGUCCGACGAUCAUACCUCCAGAGAGCAGACUGUAUACUAUGCCAAAGCAUUCUCUAAAGACUUGCCAAGAGCUGUAGAAAUUCUUGCUGAUAUAAUACAAAACAGCACAUUGGGAGAAGCAGAGAUUGAACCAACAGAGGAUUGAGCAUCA` is reported as 0.267 ratio.
For `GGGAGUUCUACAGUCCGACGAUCUCAGUCUAAGUCACAAAAAUAUCCAGUUUAACAUAAAGCUGUCUGUGCAAAGAAUAGGUGAUAGACUGCUAUUUUAACCAGGCUGAAAAGAAAAACAGAUGCAAGUGUCCCCUUUCAUGGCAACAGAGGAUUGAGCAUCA`, the bound/input enrichment was 0.135 ratio.
`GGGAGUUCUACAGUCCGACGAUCGGUCACACCAGGCCUACAAGGGCAGAAGUUAAAUAAAUUGAACUAGGGCACUAAACUGAAUAGUUGACAGUGUCAUUUUAUGUUGGAUUAUUAAUUACUGUUUUUCUUCCUGCUAUCUGUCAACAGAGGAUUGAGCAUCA` has a bound/input enrichment of 0.195 ratio.
`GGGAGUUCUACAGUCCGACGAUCUCUCCUGUAAUCACUUUUGGAGGGCUGCUUGGAGAAGCUACAGAAGGCAGAAUAAGUGCAAUAGAGUCUCUUUUUGGAGCAUCAUUAACUGGGAUUGCCUAUUCAUUGUUUGCUGGGCAACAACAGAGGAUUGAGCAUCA` gave a bound/input enrichment of 0.229 ratio.
For `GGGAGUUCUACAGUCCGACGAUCAUCAAGAGCUGGACGUUUUCCUCUCAGCACAGUAAGAAAGAUGACUUACUCCAUAAGUUGGACACCGGGUUUCGGCUGGACUCACUGCAUACCAUCCUGCAGCAGGAAGUCCUGCUGCAACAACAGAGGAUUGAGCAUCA`, the bound/input enrichment was 0.132 ratio.

Block 4
Target: Interferon regulatory factor 3, full length, phosphomimetic (IRF3, Homo sapiens, UniProt Q14653, residues 1-427, S386D/S396D/S398D/S402D/T404D/S405D)
UniProt Q14653, sequence (whole entry, unmodified, looked up): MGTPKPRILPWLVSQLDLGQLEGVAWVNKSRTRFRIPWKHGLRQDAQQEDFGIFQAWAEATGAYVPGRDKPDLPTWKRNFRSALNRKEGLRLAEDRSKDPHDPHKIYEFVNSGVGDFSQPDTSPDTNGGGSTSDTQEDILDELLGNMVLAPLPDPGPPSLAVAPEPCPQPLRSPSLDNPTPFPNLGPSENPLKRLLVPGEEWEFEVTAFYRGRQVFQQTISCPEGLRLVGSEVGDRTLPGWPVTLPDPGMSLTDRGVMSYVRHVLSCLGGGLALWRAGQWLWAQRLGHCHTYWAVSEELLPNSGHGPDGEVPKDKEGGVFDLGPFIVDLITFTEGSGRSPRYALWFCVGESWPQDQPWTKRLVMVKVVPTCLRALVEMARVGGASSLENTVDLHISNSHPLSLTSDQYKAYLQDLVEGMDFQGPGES
Method: protein-binding microarray
Molecule type: double-stranded DNA, one strand shown
Matrix: in vitro
Tested at: 2540 nM top
Notes: 60-bp whole probe
Added: salmon DNA 0.4 mg/ml
Reference: random background probes
Reading: higher = stronger binding
Constant ends, left off below: GCCTAGCAC … GTCTTGATTCGCTTGACGCTGCTG
`GACGCACTGCTACTGCTGACGTGCTAG`: “fitted relative affinity” -0.502 z-score.
For `TTAGGTTGCGGGTATCGGTTAGTGCTA`, “fitted relative affinity” read 2.21 z-score.
`TCACACATGCATCTCCCACTGTGCTAG`: “fitted relative affinity” -0.000142 z-score.
For `GTCATACGAGCGGTAGCCAAGTGCTAG`, “fitted relative affinity” read -0.292 z-score.
Under “fitted relative affinity”, `TCATGAATGCCCTTCCATACTGTGCTA` is recorded as -0.0434 z-score.
Under “fitted relative affinity”, `AAGACCATCCTGTGTCTTAAAGTGCTA` is recorded as 0.0712 z-score.
For `TATGGCTTCAAGTAACTACAGTGCTAG`, “fitted relative affinity” read -0.716 z-score.
Under “fitted relative affinity”, `TTAGATATCAGTTTCGATGAGTGCTAG` is recorded as 3.68 z-score.
`GACGGACTCCTACTGCTGACGTGCTAG` — result for “fitted relative affinity”: -0.0153 z-score.
`TTAGGTTCCGGTTTCGGTTGGTGCTAG`: “fitted relative affinity” 7.2 z-score.
For `GGGCGGGTGCCAACTCTTAGGTGCTAG`, “fitted relative affinity” read -0.471 z-score.
`GACGATTTCAGACTAGAGACGTGCTAG` — result for “fitted relative affinity”: 1.33 z-score.
For `GACGAACTGAGTCTCGAGTCGTGCTAG`, “fitted relative affinity” read -0.218 z-score.
`CTCCATGAACAGGGCTGATGGTGCTAG` — result for “fitted relative affinity”: -0.549 z-score.
`TTAGGTCTCCTTATCCTTTAGTGCTAG`: “fitted relative affinity” 2.87 z-score.
`TCACCTCTCATTCCAATACTGTGCTAG` — result for “fitted relative affinity”: 1.26 z-score.
`GACGATCTCGGTATCGAGACGTGCTAG` — result for “fitted relative affinity”: 1.04 z-score.
Under “fitted relative affinity”, `GACGGACTGGGTATAGGGACGTGCTAG` is recorded as -0.732 z-score.
